Experimental data from different studies.
Parts stem from different laboratories: compare values within a part only.

Study 1 — method: protein-binding microarray; molecule type: double-stranded DNA, one strand shown; sample: in vitro; tested at: not given; direction: higher = stronger binding; measurement: E-score
Target: Protein C-ets-1 (ETS1, Homo sapiens, UniProt P14921, residues 1-441, Y397A, full length assumed)
Setting: k-mer, scored over probes, only values ≥0.25
Residues (chain): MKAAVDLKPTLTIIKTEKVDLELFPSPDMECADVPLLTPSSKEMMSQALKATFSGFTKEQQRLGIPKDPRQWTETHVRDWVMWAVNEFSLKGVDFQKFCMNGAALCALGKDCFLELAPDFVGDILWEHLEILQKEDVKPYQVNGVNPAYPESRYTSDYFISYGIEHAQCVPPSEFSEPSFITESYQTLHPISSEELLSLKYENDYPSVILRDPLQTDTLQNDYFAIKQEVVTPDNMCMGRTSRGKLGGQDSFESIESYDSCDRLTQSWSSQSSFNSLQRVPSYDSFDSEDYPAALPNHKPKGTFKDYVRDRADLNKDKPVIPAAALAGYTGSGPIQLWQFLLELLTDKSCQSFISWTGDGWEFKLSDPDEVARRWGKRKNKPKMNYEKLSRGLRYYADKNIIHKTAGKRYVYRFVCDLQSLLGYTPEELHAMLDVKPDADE
TGTGTCAA: 0.279
CCCGCCCC: 0.383
CGATTGCC: 0.277

Study 2 — method: protein-binding microarray; molecule type: double-stranded DNA, one strand shown; sample: in vitro; tested at: 250 nM; setting: 60-bp whole probe; with: salmon DNA 0.4 mg/ml; reference: random background probes; direction: higher = stronger binding; measurement: log fluorescence
Target: Interferon regulatory factor 5, full length, phosphomimetic (IRF5, Homo sapiens, UniProt Q13568-2, residues 1-514, K96S/S451D/S453D/S456D/S462D)
GCCTAGCACTTAGATATCGGGTATCGATGAGTGCTAGTCTTGATTCGCTTGACGCTGCTG: 4.62 z-score
GCCTAGCACTCATAACTCATTCTCCAACTGTGCTAGGTCTTGATTCGCTTGACGCTGCTG: 0.374 z-score
GCCTAGCACGACGGACTGTGACTGGGGACGTGCTAGGTCTTGATTCGCTTGACGCTGCTG: -0.487 z-score

Mixed results
F2 mature alpha-thrombin: Prothrombin, mature alpha-thrombin (F2, Homo sapiens, UniProt P00734)
GGTTGGTGTGGTTGG (2'F-ANA at 1 3 4 5 6 7 8 10 15) — mean fluorescence intensity (F2 mature alpha-thrombin; aptamer microarray, sandwich; DNA with 2'F-ANA, in vitro; 200 nM, whole 15-mer aptamer, many near background, with: Cy3 exosite-II aptamer, 400 nM; higher = stronger binding): 47 a.u.
ACTGTGTC — E-score (Histone acetyltransferase KAT6A, winged helix 2, GST fusion (KAT6A, Homo sapiens, UniProt Q92794, residues 85-181); protein binding microarray; double-stranded DNA, one strand shown, in vitro; not given, 8-mer, flanks averaged, mean of 2 arrays, mostly near background; reference: not given, higher = stronger binding): -0.0656
GGTTGGTGTGGTTGG (2'F-ANA at 1 5 6 7 9 10 15) — mean fluorescence intensity (F2 mature alpha-thrombin; aptamer microarray, sandwich; DNA with 2'F-ANA, in vitro; 200 nM, whole 15-mer aptamer, many near background, with: Cy3 exosite-II aptamer, 400 nM; higher = stronger binding): 48.7 a.u.
PhoQ, residues 284 288 289 292 302 303 SLSLLA — fold induction (PhoP, residues 12 14 15 18 19 LHTVL (Escherichia coli, UniProt P23836); Sort-seq, measured: YFP reporter; E. coli; PhoQ-PhoP variant library, with: 10 µM Mg2+; reference: high Mg2+ state, higher = stronger signaling): 1.11

For quick reference, copied from above (study 2):
GCCTAGCACGACGGACTGTGACTGGGGACGTGCTAGGTCTTGATTCGCTTGACGCTGCTG: -0.487 z-score
GCCTAGCACTTAGATATCGGGTATCGATGAGTGCTAGTCTTGATTCGCTTGACGCTGCTG: 4.62 z-score
